{"data": "Assay results gathered from unrelated publications", "note": "Every numbered part comes from another study and shows a few of its results, in no order."}
{"data": "Block 1", "target": "Replicase polyprotein 1ab, nsp13 helicase (rep, Severe acute respiratory syndrome coronavirus 2, UniProt P0DTD1)", "mode": "inhibitor", "tested at": "20 µM"}
{"Structure (SMILES)": "COc1ccccc1OCC(O)CN1CCN(CC(=O)Nc2c(C)cccc2C)CC1 (centres unmarked)", "inhibition [%]": 2.99}
{"Structure (SMILES)": "C/C=C1\\NC(=O)[C@H]2CSSCC/C=C/[C@H](CC(=O)N[C@H](C(C)C)C(=O)N2)OC(=O)[C@H](C(C)C)NC1=O", "inhibition [%]": 5.14}
{"Structure (SMILES)": "CCC[C@H](N[C@@H](C)C(=O)N1[C@H](C(=O)O)C[C@@H]2CCCC[C@@H]21)C(=O)O", "inhibition [%]": 6.88}
{"Structure (SMILES)": "Cc1coc2c1C(=O)C(=O)c1c-2ccc2c1CCCC2(C)C", "inhibition [%]": 3.77}
{"Structure (SMILES)": "CC(C)(C)OC(=O)c1ncn2c1[C@@H]1CCCN1C(=O)c1c(Br)cccc1-2", "inhibition [%]": 3.21}
{"Structure (SMILES)": "c1ccc(Cn2c(N3CCNCC3)nc3ccccc32)cc1", "inhibition [%]": -2.29}
{"Structure (SMILES)": "CN(c1ccccc1CNc1nc(Nc2ccc3c(c2)CC(=O)N3)ncc1C(F)(F)F)S(C)(=O)=O", "inhibition [%]": 3.71}
{"Structure (SMILES)": "COc1cc2c(cc1OC(C)C)[C@H](c1ccc(Cl)cc1)N(c1ccc(N(C)C[C@H]3CC[C@H](N4CCN(C)C(=O)C4)CC3)cc1)C(=O)C2", "inhibition [%]": 10.4}
{"Structure (SMILES)": "O=C(NS(=O)(=O)c1ccc(Br)s1)c1ccc(Cl)cc1Cl", "inhibition [%]": 1.13}
{"Structure (SMILES)": "CSc1nc(-c2ccnc(NC(C)c3ccccc3)c2)c(-c2ccc(F)cc2)[nH]1 (centres unmarked)", "inhibition [%]": 6.77}
{"Structure (SMILES)": "CCc1cc2c(c(CC)n1)CCC(=O)N2Cc1ccc(-c2ccccc2-c2nn[nH]n2)cc1", "inhibition [%]": 10.1}
{"Structure (SMILES)": "CC(=O)Nc1c(I)cc(I)c(C(=O)O)c1I", "inhibition [%]": 0.81}
{"Structure (SMILES)": "O=C(O)C(F)(F)C(F)(F)C(F)(F)C(F)(F)C(F)(F)C(F)(F)C(F)(F)F", "inhibition [%]": 11.7}
{"Structure (SMILES)": "Cc1ccc(C)c(OCCCC(C)(C)C(=O)O)c1", "inhibition [%]": 7.68}
{"Structure (SMILES)": "NC(=O)N[C@@H](CCC(=O)O)C(=O)O", "inhibition [%]": 4.37}
{"Structure (SMILES)": "CC(C)C[C@@H](NC(=O)[C@H](Cc1ccccc1)NC(=O)CNC(=O)[C@@H](C)NC(=O)[C@@H](N)Cc1ccc(O)cc1)C(=O)O", "inhibition [%]": -1.31}
{"Structure (SMILES)": "NCCC[C@H](N)C(=O)O", "inhibition [%]": 4.52}
{"Structure (SMILES)": "N[C@H](Cc1ccccc1)C(=O)O", "inhibition [%]": 4.71}
{"Structure (SMILES)": "CC(N)CCCC(C)(C)O (centres unmarked)", "inhibition [%]": -0.79}
{"Structure (SMILES)": "CN[C@@H](C)C(=O)N[C@H](C(=O)N1CCC[C@H]1C(=O)Nc1sc(-c2ncco2)nc1-c1ccccc1)C1CCCCC1", "inhibition [%]": 10.5}
{"Structure (SMILES)": "CCOc1nc2cccc(C(=O)OCc3oc(=O)oc3C)c2n1Cc1ccc(-c2ccccc2-c2noc(=O)[nH]2)cc1", "inhibition [%]": 3.68}
{"Structure (SMILES)": "CNc1ccc([N+](=O)[O-])cc1-n1cnc(-c2ccc(C(F)(F)F)cc2)c1", "inhibition [%]": 4.82}
{"Structure (SMILES)": "O=C(Nc1cc(C(F)(F)F)ccc1O)Nc1cc(C(F)(F)F)ccc1O", "inhibition [%]": 5.28}
{"Structure (SMILES)": "CCOC(=O)c1ccc(-c2ccc(OC(=O)N(C)Cc3cccc(-c4ccncc4)c3)cc2)cc1", "inhibition [%]": 3.25}
{"Structure (SMILES)": "CCOC(=O)[C@H](C)C[C@@H](Cc1ccc(-c2ccccc2)cc1)NC(=O)CCC(=O)O", "inhibition [%]": 6.25}
{"data": "Block 2", "target": "Replicase polyprotein 1ab, main protease (rep, Severe acute respiratory syndrome coronavirus 2, UniProt P0DTD1)", "observed": "enzyme activity", "mode": "inhibitor", "tested at": "20 µM", "notes": "primary screen"}
{"Compound": "CC1(C)C(/C=C/C=C/C=C/C=C2/N(CCCCS(=O)(=O)O)c3ccc4ccccc4c3C2(C)C)=[N+](CCCCS(=O)(=O)[O-])c2ccc3ccccc3c21", "inhibition [%]": 65.5}
{"Compound": "Cc1cc(O)c2c(c1)C(=O)c1cccc(O)c1C2=O", "inhibition [%]": 31.1}
{"Compound": "CCCCCCCCCCCCCCCCCC[S+](CCC)c1ccccc1C(=O)OCC (centres unmarked)", "inhibition [%]": 96.8}
{"data": "Block 3", "cell line": "HEK-293T/ACE2", "tested at": "10 µM", "time": "16 h", "relative to": "vehicle"}
{"Structure (SMILES)": "CN(C)CCC=C1c2ccccc2CCc2ccccc21", "viability [%]": 101}
{"Structure (SMILES)": "COc1cc([C@@H]2c3cc4c(cc3[C@@H](O[C@@H]3O[C@@H]5CO[C@@H](c6cccs6)O[C@H]5[C@H](O)[C@H]3O)[C@H]3COC(=O)[C@H]23)OCO4)cc(OC)c1O", "viability [%]": 67.5}
{"Structure (SMILES)": "Nc1ccncc1", "viability [%]": 99.5}
{"Structure (SMILES)": "Cc1cnc(NC(=O)C2=C(O)c3ccccc3S(=O)(=O)N2C)s1", "viability [%]": 100}
{"data": "Block 4", "target": "Sal-like protein 4, full length isoform B (SALL4, Homo sapiens, UniProt Q9UJQ4-2, residues 1-616)", "technique": "universal PBM", "form": "double-stranded DNA, one strand shown", "sample": "in vitro", "tested at": "not given", "notes": "8-mer, flanks averaged, mean of replicates", "direction": "higher = stronger binding"}
{"Sequence": "AACGTTCC", "E-score": 0.0454}
{"Sequence": "AGCTCTAC", "E-score": -0.168}
{"Sequence": "TTCTAGAA", "E-score": -0.0976}
{"Sequence": "ACAGCTTA", "E-score": 0.103}
{"Sequence": "CTTGGCCC", "E-score": -0.315}
{"Sequence": "CTGGCAGC", "E-score": -0.275}
{"Sequence": "ACACACCA", "E-score": 0.0126}
{"Sequence": "CCAAAGCG", "E-score": -0.209}
{"data": "Block 5", "target": "Interferon regulatory factor 5, full length, phosphomimetic (IRF5, Homo sapiens, UniProt Q13568-2, residues 1-514, S451D/S453D/S456D/S462D)", "technique": "protein-binding microarray", "form": "double-stranded DNA, one strand shown", "sample": "in vitro", "tested at": "940 nM top", "notes": "60-bp whole probe", "together with": "salmon DNA 0.4 mg/ml", "relative to": "random background probes", "direction": "higher = stronger binding", "shared flanks, not repeated": "GCCTAGCAC … GTCTTGATTCGCTTGACGCTGCTG"}
{"Sequence": "AATATTCTGCTTTGCAATAAGTGCTAG", "fitted relative affinity [z-score]": 0.0604}
{"Sequence": "GTTTCATTCCTGATCTCTGGGTGCTAG", "fitted relative affinity [z-score]": 3.69}
{"Sequence": "TTCACTTTCCAAAACATGAAGTGCTAG", "fitted relative affinity [z-score]": 0.531}
{"Sequence": "TTAGGTTTCGTTTCCGGTTAGTGCTAG", "fitted relative affinity [z-score]": 10}
{"Sequence": "TCATTTTTCATTTTGTTACTGTGCTAG", "fitted relative affinity [z-score]": 1.73}
{"Sequence": "TTAGGTCTCGGACTGGGTTAGTGCTAG", "fitted relative affinity [z-score]": 1.04}
{"Sequence": "GACGAACTGTGGACTGGAGACGTGCTA", "fitted relative affinity [z-score]": -0.536}
{"Sequence": "TTAGGACTGGGTCCCGGTTAGTGCTAG", "fitted relative affinity [z-score]": -0.253}
{"data": "Block 6", "target": "Histone acetyltransferase KAT6A, winged helix 2, GST fusion (KAT6A, Homo sapiens, UniProt Q92794, residues 85-181)", "technique": "protein binding microarray", "form": "double-stranded DNA, one strand shown", "sample": "in vitro", "tested at": "not given", "notes": "8-mer, flanks averaged, mean of 2 arrays, mostly near background", "relative to": "not given", "direction": "higher = stronger binding", "Construct (chain)": "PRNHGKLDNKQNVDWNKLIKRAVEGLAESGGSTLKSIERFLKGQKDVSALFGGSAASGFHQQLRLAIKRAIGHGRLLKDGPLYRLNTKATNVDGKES"}
{"Sequence": "AACCCCCA", "E-score": -0.185}
{"Sequence": "GGAATCAA", "E-score": -0.0197}
{"Sequence": "CCGAGCTA", "E-score": -0.00803}
{"Sequence": "AGTATGAA", "E-score": -0.0182}
{"Sequence": "AGGCTGAC", "E-score": 0.106}
{"Sequence": "AAGGCACC", "E-score": 0.0658}
{"Sequence": "CTATCGTC", "E-score": -0.182}
{"Sequence": "CGATCGTC", "E-score": 0.0377}
{"note": "Some of these lines once more (block 6):"}
{"Sequence": "AACCCCCA", "E-score": -0.185}
{"Sequence": "GGAATCAA", "E-score": -0.0197}
{"Sequence": "CCGAGCTA", "E-score": -0.00803}
{"Sequence": "AGTATGAA", "E-score": -0.0182}
